Published values collected from several papers.
Numbered parts are unrelated; each lists some results of a single study.

Series 1
Target: Histone acetyltransferase KAT6A, winged helix 1, GST fusion (KAT6A, Homo sapiens, UniProt Q92794, residues 1-85)
Method: protein binding microarray
Form: double-stranded DNA, one strand shown
Sample: in vitro
Tested at: not given
Setting: 8-mer, flanks averaged, mean of 2 arrays, mostly near background
Baseline: not given
Reading: higher = stronger binding
Construct (chain): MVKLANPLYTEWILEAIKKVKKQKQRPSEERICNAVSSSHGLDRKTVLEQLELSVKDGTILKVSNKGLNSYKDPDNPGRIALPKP
Strand	E-score
TATCCAGA	-0.068
CAGGATAC	-0.104
ATCGATGC	0.0689
CACGGACC	0.316
CGTTGGTA	0.0632
CTCACCGA	-0.0171
CAGACAGG	-0.0189

Series 2
Substance: PhoQ, residues 284 288 289 292 302 303 WVSSAF
Method: Sort-seq
Refers to: YFP reporter
Sample: E. coli
Setting: PhoQ-PhoP variant library
Added: 10 µM Mg2+
Baseline: high Mg2+ state
Reading: higher = stronger signaling
target	fold induction
PhoP, residues 12 14 15 18 19 GMGLL (Escherichia coli, UniProt P23836)	25.2
PhoP, residues 12 14 15 18 19 QQAYL (Escherichia coli, UniProt P23836)	14.4
PhoP, residues 12 14 15 18 19 LFHKL (Escherichia coli, UniProt P23836)	0.685

Series 3
Target: Fragile X messenger ribonucleoprotein 1, C-terminal low-complexity region (Fmr1, Mus musculus, UniProt P35922)
Method: RNA Bind-n-Seq
Form: RNA
Sample: in vitro
Tested at: 200 nM
Setting: whole 134-nt RNA, ends assumed
Added: 150 mM LiCl
Baseline: input library
Reading: higher = stronger binding
All molecules: 7-deaza-guanosine replaces G
Shared flanks, not repeated: GGGAGUUCUACAGUCCGACGAUC … UGGAAUUCUCGGGUGUCAAGG
Strand	log2 enrichment
GUCCUGUGCUACACAUCGUAUGUACCGAAUCGGAAAAAGGGGAAAAAGGAAAAAGGGGAAAGUAUUAUGUUACGCCGUUCGGAUCUGCAC	0.314
CUGUGCUACACAUCGUAUGUACCGAAUCGGCCCCCCCGGGGCCCCCCCGGGGCCCCCCCGGGAAAGUAUUAUGUUACGCCGUUCGGAUCU	-2.24
AAGUCCUGUGCUACACAUCGUAUGUACCGAAUCAAAUUUAAACCCAAAUUUUUAAAAAAGUAUUAUGUUACGCCGUUCGGAUCUGCACUU	-1.65
CACAGACAACACGCACCUACACAGACACAGAGGGAAGGGGUUGGGAUGGGGACAGGGUGCACAGCAGGGCGGGGUAGGACCCCAGCCCCU	0.733
CUCAAGUCCUGUGCUACACAUCGUAUGUACCGAAUCGGGAGGGAGGGUUUGGGAAAGUAUUAUGUUACGCCGUUCGGAUCUGCACUUCCA	-0.613

Series 4
Target: RNA binding protein fox-1 homolog 2, RRM domain, GST-SBP tag (RBFOX2, Homo sapiens, UniProt O43251-10, residues 100-194)
Method: RNA Bind-n-Seq
Form: RNA
Sample: in vitro
Tested at: 365 nM
Setting: natural RNA segment, single round, ends assumed
Baseline: no-protein control
Reading: higher = stronger binding
Shared flanks, not repeated: GGGAGUUCUACAGUCCGACGAUC … UGGAAUUCUCGGGUGCCAA
Residues (chain): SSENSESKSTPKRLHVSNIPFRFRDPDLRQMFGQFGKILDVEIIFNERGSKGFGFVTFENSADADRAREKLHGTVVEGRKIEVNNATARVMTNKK
Strand	RBNS enrichment (R)
ACUCUUAUGUGUUGUUCUUUCAGCCCAUGCUCCAGGUCACCGGUUUUUAGGUAAACAUGACAUGACAUGUACUUGUAAUAUCAGUGAAAGGGGCUUUUAGUCGUCUCAGU	0.221
CUUUAAAUAAAUAGCAUCGGACUUUCAUAUUUUUCUUUUUGACGUGGAGAAAACAUUUUCAUGCCUAAAAAUGUCUUUGAGAUAAUGCCAAUUCUGAUGUCCCUUACCUU	0.449
UCCCUUGUGUCUGGAGUAUUCUGUCAUCUGCAAGCCCUGUUCUUACCUCACCUGUCCACGUUCACCACAGGCCACUUGAGCACGUGGCACCUAUCUGAGCUCUACUCAGU	0.666
UCUUAACAGGUACGGCACACACAAGUUAAUAGUACUCUGCUAUAGGUGCUAUGUUACUUACAAGUAUUAUUAACCUAUUGGCUUCCAUUGUAUAGUAGUUUAGUAACUAU	0.533
GGAUCAGGGGUGAUAGGGGAGAGCAAUUACUUUGUUCACUGUAUGCACCCGCGGGGGCCUGGGAGUCCCCAUUUGCAGGUGGGUAGGGCCUCCAGCCCACACCACCCAGA	0.44
CUGGGUUGCCGCGGCAGCAGUGGUCUGUUUGAUGCUGCCGUUUGCCGCUGCCGGCCCCUCCUCAGACUCCGCCUUUGGGAGCACACCUGCUUUGCCUUGCUGCCUGUGCA	4.94

For quick reference, copied from above (series 3):
Strand	log2 enrichment
CACAGACAACACGCACCUACACAGACACAGAGGGAAGGGGUUGGGAUGGGGACAGGGUGCACAGCAGGGCGGGGUAGGACCCCAGCCCCU	0.733
